# Assay results gathered from unrelated publications.
# ± marks the error that the study gave.
SMILES,assay,test system,setting,quantity,value
C[C@@H]1NC(=O)[C@H](CCCCNC(=O)CO/N=C/C(=O)NCCCC[C@@H]2NC(=O)[C@@H](Cc3ccccc3)NC(=O)[C@H](CC(=O)O)NC(=O)CNC(=O)[C@H](CCCNC(=N)N)NC2=O)NC(=O)CNC(=O)[C@@H]2CCCN2C(=O)[C@H](CCCCNC(=O)CO/N=C/C(=O)NCCCC[C@@H]2NC(=O)[C@@H](Cc3ccccc3)NC(=O)[C@H](CC(=O)O)NC(=O)CNC(=O)[C@H](CCCNC(=N)N)NC2=O)NC(=O)[C@H](CCCCNC(=O)CN2CCCNCCNCCCNCC2)NC(=O)[C@H](CCCCNC(=O)CO/N=C/C(=O)NCCCC[C@@H]2NC(=O)[C@@H](Cc3ccccc3)NC(=O)[C@H](CC(=O)O)NC(=O)CNC(=O)[C@H](CCCNC(=N)N)NC2=O)NC(=O)CNC(=O)[C@@H]2CCCN2C(=O)[C@H](CCCCNC(=O)CO/N=C/C(=O)NCCCC[C@@H]2NC(=O)[C@@H](Cc3ccccc3)NC(=O)[C@H](CC(=O)O)NC(=O)CNC(=O)[C@H](CCCNC(=N)N)NC2=O)NC1=O [copper-64 labelled],,"normal mice, lung","intravenous, 0.74 MBq, 3 h post-injection",tissue uptake,1.98 ± 0.21 %ID/g
C=CCNc1c(O)cc2c(O)c1C[C@@H](C)C[C@H](OC)[C@H](O)[C@@H](C)/C=C(\C)[C@H](OC(N)=O)[C@@H](OC)/C=C\C=C(/C)C(=O)N2,,"unresectable or metastatic STS, GIST, other","intravenous, 225 mg/m^2",patients with back pain TEAE,33%
Clc1ccc(-c2ccccc2)cc1,,"Sprague-Dawley rats, female, serum","inhalation, 23 µg/rat, 2 h after exposure",potassium,7 ± 3 mmol/L
CC(=O)c1c(C)c2cnc(Nc3ccc(C4CCN(CCS(C)(=O)=O)CC4)cn3)nc2n(C2CCCC2)c1=O,,"human patients, plasma","oral, 100 mg twice daily, day 21 multiple doses, added: fulvestrant",AUC(0-inf),1550 ng·h/mL
CCc1ccc(CC/C=C/c2ccc3c(c2)C(=O)CC3)cc1,,"Sprague-Dawley rat, female","oral, 30 mg/kg/day, 14 days",Reticulocyte percentage,2.65%
C[C@]1(CO)Cc2ncn(-c3ccc(C#N)c(Cl)c3)c2C(=O)O1,,"healthy Japanese adults, plasma","80 mg once daily, multiple dose",half-life at steady state,5.9 h
C#C[C@]1(CO)O[C@@H](n2cnc3c(N)nc(F)nc32)C[C@@H]1O,,monkey,"oral, 75 mg/kg every 3 days, 29 days",tolerability,not toxic
C[C@H]1C[C@@H](N2C(=N)N[C@](C)(c3cccc(NC(=O)c4cccc(C#N)c4)c3Cl)CC2=O)CCO1,,rat,"500 mg/kg, every other day",monocytes count change,38%
N#C/N=C1\SCCN1Cc1ccc(Cl)nc1,,soil,"28 days, nominal 0.12",concentration,0 mg/kg dry soil
C=CC(=O)N1CC[C@H](n2nc(C#Cc3cc(OC)cc(OC)c3)c3c(N)ncnc32)C1,,"human patients, serum","oral, dose not given, QD, before phosphate binder start, added: phosphate binder for ≥2 cycles","serum phosphate, median",5.2 mg/dL
CN(C)C1(CNC(=O)c2ccc3c(c2)CCN3C(=O)c2ccccc2)CCOCC1,,male C57BL/6 mice,"intraperitoneal, 50 mg/kg, 120 min",unbound brain concentration,42.3 nM
O=S(=O)(Nc1ccccc1)c1ccc(NC(=S)Nc2ccccc2)cc1,refers to: MO%,"female mouse, blood","oral, 5 mg/kg daily, 14 days",blood cell fraction,4.24%
CN1CC[C@@H](c2c(O)cc(O)c3c(=O)cc(-c4ccc(C(F)(F)F)cc4Cl)oc23)[C@@H]1CO,refers to: Diarrhea,B-cell malignancies,"oral, 100 mg, intermittent dosing",patients with adverse event,33.3%
CN1CCN(S(=O)(=O)c2cc([N+](=O)[O-])ccc2N(CCOS(C)(=O)=O)CCOS(C)(=O)=O)CC1,,"naive NOD/SCID mice, pooled blood","intraperitoneal, 25 mg/kg, week 4",glucose,4.4 mmol/L

# Excerpt of the above:
SMILES,assay,test system,setting,quantity,value
CC(=O)c1c(C)c2cnc(Nc3ccc(C4CCN(CCS(C)(=O)=O)CC4)cn3)nc2n(C2CCCC2)c1=O,,"human patients, plasma","oral, 100 mg twice daily, day 21 multiple doses, added: fulvestrant",AUC(0-inf),1550 ng·h/mL
CCc1ccc(CC/C=C/c2ccc3c(c2)C(=O)CC3)cc1,,"Sprague-Dawley rat, female","oral, 30 mg/kg/day, 14 days",Reticulocyte percentage,2.65%
